Published values pooled from the literature.
Values joined by “and” are separate records of one study, mostly repeats; a detail may differ.
Organism: Trypanosoma brucei
Observed: parasite growth

| SMILES | assay | system | setting | endpoint | result |
| --- | --- | --- | --- | --- | --- |
| Cc1cnc(CNC(=O)c2c(=O)c3ccc(N4CCCN(C)CC4)nc3n3c2sc2ccccc23)cn1 | resazurin | – | – | EC90 | 0.19 µM |
| CCn1cc(-c2ccnc3[nH]ccc23)c(-c2cccc(NC(=O)Nc3ccc(OCc4ccccc4)cc3)c2)n1 | – | – | – | EC50 | 0.501 µM |
| Clc1ccc(Nc2ncnc3ccc(-c4cccc(N5CCOCC5)c4)cc23)cc1Cl | SYBR Green | – | 48 h | GI50 | 0.041 µM |
| CCc1cc(Nc2nccc(-c3c(-c4ccc(OC)c(C(=O)Nc5c(F)cccc5F)c4)nc4ccccn34)n2)c(OC)cc1N1CCC(N2CCN(S(C)(=O)=O)CC2)CC1 | – | – | – | EC50 | 1.38 µM |
| CCOC(=O)c1cnc2c([N+](=O)[O-])cc(C(F)(F)F)cc2c1NCc1ccc(F)cc1 | resazurin | – | 72 h | EC50 | 2.2 µM and 2 µM |
| C[n+]1cc(NC(=O)c2ccc3ccc4ccc(C(=O)Nc5cc6ccccc6[n+](C)c5)nc4c3n2)cc2ccccc21 | resazurin | – | – | EC50 | 0.36 µM |
| C[C@@H]1COCCN1c1cccc(-c2ccc3ncnc(Nc4ncco4)c3c2)c1 | SYBR Green | – | 48 h | GI50 | 0.19 µM |
| Cc1cc(C)c(C#N)c(SCC(=O)c2cccs2)n1 | resazurin | – | – | EC50 | > 64 µM |
| CN(C)CCNC(=O)c1cccn2c(=O)c3cc4ccccc4cc3nc12 | resazurin | – | – | EC50 | 0.11 µM |
| CN1CCC(n2cnc(-c3ccc(F)cc3)c2-c2ccnc(NCCO)n2)CC1 | – | – | – | EC50 | 1.58 µM |
| Cc1cc(C)c(C#N)c(SCC(=O)N2CCN(C)CC2)n1 | resazurin | – | – | EC50 | > 64 µM |
| Nc1nc(NCCNc2ncc(-c3ncc[nH]3)c(-c3ccc(Cl)cc3Cl)n2)ccc1[N+](=O)[O-] | – | – | – | EC50 | > 3 µM |
| Cc1nc(Nc2ncnc3ccc(-c4cccc(N5CCOCC5)c4)cc23)oc1C | SYBR Green | – | 48 h | GI50 | 1.3 µM |
| CN1CCC(n2cnc(-c3ccc(F)cc3)c2-c2ccnc(N)n2)CC1 | – | – | – | EC50 | 1 µM |
| CNc1ccnc(SCC(=O)c2ccccc2)c1C#N | resazurin | – | – | EC50 | > 64 µM |
| CN1CCN(c2cccc(-c3ccc4ncnc(Nc5ccc([N+](=O)[O-])c(C(F)(F)F)c5)c4c3)c2)CC1 | SYBR Green | – | 48 h | GI50 | 0.031 µM |
| C[C@@H](Oc1cc(-n2cnc3ccc(OC4CCN(C)CC4)cc32)sc1C(N)=O)c1ccccc1Cl | – | – | – | EC50 | 0.0794 µM |
| COc1ccccc1C(=O)CSc1nc(C)cc(C)c1C#N | resazurin | RHODESIENSE | – | EC50 | > 64 µM |
| CN(c1ncco1)c1ncnc2ccc(-c3cccc(N4CCOCC4)c3)cc12 | SYBR Green | – | 48 h | GI50 | 17 µM |
| Cc1cc(C)c(C(N)=O)c(SCC(=O)c2ccc(F)cc2)n1 | resazurin | – | – | EC50 | 45 µM |
| CCc1ccc(Oc2nccc(-c3c(-c4ccc(F)cc4)ncn3C3CCNCC3)n2)cc1 | – | – | – | EC50 | 2 µM |
| Cc1cc(C)c(C#N)c(SCC(=O)c2ccsc2)n1 | resazurin | RHODESIENSE | – | EC50 | > 64 µM |
| CCn1c(-c2nonc2N)nc2c(C#CC(C)(C)O)nc(O[C@@H](CN)c3ccccc3)cc21 | – | – | – | EC50 | 0.126 µM |
| CN1CCN(c2cccc(-c3ccc4ncnc(Nc5ccc(Cl)c(C(F)(F)F)c5)c4c3)c2)CC1 | SYBR Green | – | 48 h | GI50 | 0.3 µM |
| Cc1cc(C)c(C#N)c(SCC(N)c2ccccc2)n1 (stereo not drawn) | resazurin | RHODESIENSE | – | EC50 | 14.7 µM |
| c1cc(-c2ccc3ncnc(Nc4ncco4)c3c2)nc(N2CCOCC2)c1 | SYBR Green | – | – | GI50 | 1.9 µM |
| CC(=O)Oc1ccccc1C(=O)CSc1nc(C)cc(C)c1C#N | resazurin | – | – | EC50 | 30.1 µM |
